Results collected from several papers.
Each numbered part is a random draw from the data of one study; scales do not carry over between parts. Changes are numbered by the printed parent chain.

Sample 1 — method: RNA Bind-n-Seq; form: RNA; sample: in vitro; concentration: not given; relative to: input RNA pool; reading: higher = stronger binding
Target: RING finger protein unkempt homolog, zinc fingers 1-6, GST-SBP tag (UNK, Homo sapiens, UniProt Q9C0B0, residues 30-357)
UniProt Q9C0B0, sequence (30-357, looked up): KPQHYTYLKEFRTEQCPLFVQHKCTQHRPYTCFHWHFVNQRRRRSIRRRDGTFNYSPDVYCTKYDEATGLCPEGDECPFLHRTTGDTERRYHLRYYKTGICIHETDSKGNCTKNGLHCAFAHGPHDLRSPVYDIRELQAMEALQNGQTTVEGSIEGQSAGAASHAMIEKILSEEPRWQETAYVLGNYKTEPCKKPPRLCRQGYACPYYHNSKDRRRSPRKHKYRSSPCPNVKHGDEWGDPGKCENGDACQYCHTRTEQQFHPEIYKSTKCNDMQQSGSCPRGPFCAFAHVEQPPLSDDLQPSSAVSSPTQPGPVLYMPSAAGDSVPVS
Notes: RNA with constant flanks, human and mouse sites, ends assumed
Shared flanks, not repeated: GGGAGUUCUACAGUCCGACGAUC … CAACAGAGGAUUGAGCAUCA
Strand | bound/input enrichment [ratio]
CCUCGACAAGGUCUUCCACUUGCCCACCACCACUUUCAUCGGGGGACAGGAAUCAGCACUUCCUCUGCGGGAGAUCAUCCGUCGGCUGGAGAUGGCCUACUGCCAGCAUAUUGGGGUGGA | 0.171
GUAGAAUUUAUUCUGUCUUUCAUUGACCACAUUGCUGGAGAUGAGGAUCACACAGAUGGAGUAGUAGCUUGUGCUGCUGGACUAAUAGGGGACUUAUGUACAGCAUUUGGGAAGGAUGUA | 0.32
GCACAGAUUCAUCAGUUCAGAGAGGAUUCAUUGGAUAGUGUUCUUUUUCUCAAAAAGAUCGAUAGAUGCUGGCAAAACCACUGUAGGCAAAUGAUAAUGAUCAGGAGCAUUUUUUUGUUU | 0.245
GCAUGCUUCCAGAAGACUGGCGCCUCGGUGGUUGCGAUUCGAAAGUACAUCAUUCAUAAGUACCCGUCUCUGGGUCUGGAGAGAAGGGGCUAUCUGCUCAAGCAAGCGCUGAAGAGAGAG | 0.382
UGCUACCAACAGCCUAAGGGGGGGUCAAGGGACUCUCGUCUUUUAUAAGUUUUUGAUUUUUUUUAAACAGGGAUUAACCCCAUGGCCAUUUUUUGUGGUACUCUGGCCUCAAAACUUUAA | 1.04
UAAACAUUGUAUGCAUUUUGAUUUUUCCUACUUUAAGAAAAUAAAAUAAUUUAAUUUUACAUUAGAUUCCACGUUAGAUUUGGUUUGAAAAACUAAAAUUUCAGAUUUCUGAGGAUAUAC | 1.77
AUGCCUUUUAAGUAUGGUGUUUGACAUUAACUUGUGAAAAGUCUGUGAUGUUUGUAUAUAUAUAGCAUUUGAAGAUAAACUUUUGUGUUAAAAUCUUUUUAUAACUCCAACUUUUGUAGG | 0.297
GAAAACGGACGAUGUAUUACUAAGCUGGAAAACAUGGGGUUUCGAGUGGGACAAGGAUUGAUAGAAAGGUUUACAAAAGAUACUGCAAGGUUCAAGGAUGAGUUAGAUAUCAUGAAGUUC | 0.697

Sample 2 — target: CCNA1, cyclin fold, Cln2 fusion (human); method: yeast growth competition, sequencing; sample: yeast; notes: weak parent motif; relative to: not given; reading: higher = stronger binding
Parent: ORC1 docking peptide (human); PRARKRLELGNLG; partner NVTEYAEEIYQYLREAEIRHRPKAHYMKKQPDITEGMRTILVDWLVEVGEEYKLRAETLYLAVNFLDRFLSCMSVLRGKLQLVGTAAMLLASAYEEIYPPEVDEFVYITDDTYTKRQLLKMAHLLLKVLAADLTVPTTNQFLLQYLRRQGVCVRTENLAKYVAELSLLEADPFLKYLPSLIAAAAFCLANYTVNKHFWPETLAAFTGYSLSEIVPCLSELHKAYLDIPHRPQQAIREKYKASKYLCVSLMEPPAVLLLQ
Variant | normalised enrichment score
PRARKRLELFNLG [G10F] | 0.372
PRARKRCELGNLG [L7C] | 0.182
PRARKSLELGNLG [R6S] | 0.375
PRARKRWELGNLG [L7W] | 0.373
PRAWKRLELGNLG [R4W] | 0.112
PRARKRLELGNTG [L12T] | 0.49
PRARKRLELGNLL [G13L] | 0.101

Sample 3 — method: RNA Bind-n-Seq; form: RNA; sample: in vitro; concentration: 1 µM; notes: whole 134-nt RNA, ends assumed; together with: 150 mM KCl; relative to: input library; reading: higher = stronger binding
Target: Ras GTPase-activating protein-binding protein 1, C-terminal RGG region (G3BP1, Homo sapiens, UniProt Q13283)
UniProt Q13283, sequence (whole entry, looked up): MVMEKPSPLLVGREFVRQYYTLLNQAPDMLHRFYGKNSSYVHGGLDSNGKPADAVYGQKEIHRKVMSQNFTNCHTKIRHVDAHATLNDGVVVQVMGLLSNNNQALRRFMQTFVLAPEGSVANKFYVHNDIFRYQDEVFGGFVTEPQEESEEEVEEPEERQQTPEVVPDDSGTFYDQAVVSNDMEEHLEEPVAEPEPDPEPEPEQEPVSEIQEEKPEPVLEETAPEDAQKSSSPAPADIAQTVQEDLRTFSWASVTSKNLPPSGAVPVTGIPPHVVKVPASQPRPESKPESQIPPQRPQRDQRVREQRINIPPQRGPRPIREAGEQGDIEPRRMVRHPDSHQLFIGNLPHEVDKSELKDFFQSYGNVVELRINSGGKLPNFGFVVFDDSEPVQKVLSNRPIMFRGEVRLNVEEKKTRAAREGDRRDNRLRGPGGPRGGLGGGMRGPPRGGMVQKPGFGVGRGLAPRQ
Shared flanks, not repeated: GGGAGUUCUACAGUCCGACGAUC … UGGAAUUCUCGGGUGUCAAGG
Strand | log2 enrichment
UGUUCUGCAGAGGGGCGGUGUCAUUACUGAUGAAGAGGAAACCUCUAAGAAGAUAGCUGACCAGUUGGACAACAUUGUGGACAUGCGCGA | -2.01
UUUCUUCCCCCACAGUUCAUCCAUGAGCUCGGAUUUCCCACAUUACAACUUCAGGAUGCCUAAUAUUGGAUUCCAGAAUCUGCCUCUCAA | 0.443
ACCAUGCAGGUGAAAAUCUUUGGGAAGUGGGGCAAGGGGGGGAUAGGGAGGGGGGUAACACUUUGGGAACAGGUGGUCCCAGGUCGUUUC | -1.07
UGGCCCUGGUGGCAUGCGGGGAGGAAGAGGUGGCCUCAUGGAUCGUGGUGGUCCCGGUGGAAUGUUCAGAGGUGGCCGUAGUGGAGACAG | 3.29
UGGCCCUGAUGGCAUGCGGGGAGGAAGAGGUGGCCUCAUGGAUCGUGGUGGUCCCGGUGGAAUGUUCAGAGGUGGCCGUGGUGGAGACAG | 2.2
UCCUGUGCUACACAUCGUAUGUACCGAAUCGGCCCCCCCGGGCCCCCCCGGCCCCCCCGGAAAGUAUUAUGUUACGCCGUUCGGAUCUGC | -0.661
CACAGACAACACGCACCCACACAGACACAGAGGGAAGGGGUUGGCAUGGGGACAGGGUGCACAGCAGGGCGGGGUAGGACCCCAGCCCCU | -0.636
CCUCAAGUCCUGUGCUACACAUCGUAUGUACCGAAUCGGAAAGGUGGAAAGGAAAGUAUUAUGUUACGCCGUUCGGAUCUGCACUUCCAG | -0.762
UCAAGUCCUGUGCUACACAUCGUAUGUACCGAAUCGGGGUUGGGGUUGGGUUGGAAAGUAUUAUGUUACGCCGUUCGGAUCUGCACUUCC | -0.00836
UGGGAGGUGGAUUUUGUUUAUUUUUUUAGCUCAUUUCCAGGGGUGGGAAUUUUUUUUUAAUAUGUGUCCUGAAUAAAGUUGUUUUUGAAA | 4.03

Further values, each from its own experiment
Substance | target | assay | test system | conditions | scale | measurement | result
PhoQ, residues 284 288 289 292 302 303 TYGVAM | PhoP, residues 12 14 15 18 19 LYFRQ (Escherichia coli, UniProt P23836) | Sort-seq, measured: YFP reporter | E. coli | PhoQ-PhoP variant library, together with: 10 µM Mg2+ | relative to: high Mg2+ state, higher = stronger signaling | fold induction | 9.1

For quick reference, copied from above (sample 3):
Strand | log2 enrichment
UGGCCCUGAUGGCAUGCGGGGAGGAAGAGGUGGCCUCAUGGAUCGUGGUGGUCCCGGUGGAAUGUUCAGAGGUGGCCGUGGUGGAGACAG | 2.2
CACAGACAACACGCACCCACACAGACACAGAGGGAAGGGGUUGGCAUGGGGACAGGGUGCACAGCAGGGCGGGGUAGGACCCCAGCCCCU | -0.636
UCAAGUCCUGUGCUACACAUCGUAUGUACCGAAUCGGGGUUGGGGUUGGGUUGGAAAGUAUUAUGUUACGCCGUUCGGAUCUGCACUUCC | -0.00836
